Results gathered from unrelated publications.
Each line is one published result; not all experiments were run side by side.
Target: Tyrosine-protein kinase CSK (CSK, Homo sapiens, UniProt P41240)
Chain of UniProt P41240 (whole entry, looked up): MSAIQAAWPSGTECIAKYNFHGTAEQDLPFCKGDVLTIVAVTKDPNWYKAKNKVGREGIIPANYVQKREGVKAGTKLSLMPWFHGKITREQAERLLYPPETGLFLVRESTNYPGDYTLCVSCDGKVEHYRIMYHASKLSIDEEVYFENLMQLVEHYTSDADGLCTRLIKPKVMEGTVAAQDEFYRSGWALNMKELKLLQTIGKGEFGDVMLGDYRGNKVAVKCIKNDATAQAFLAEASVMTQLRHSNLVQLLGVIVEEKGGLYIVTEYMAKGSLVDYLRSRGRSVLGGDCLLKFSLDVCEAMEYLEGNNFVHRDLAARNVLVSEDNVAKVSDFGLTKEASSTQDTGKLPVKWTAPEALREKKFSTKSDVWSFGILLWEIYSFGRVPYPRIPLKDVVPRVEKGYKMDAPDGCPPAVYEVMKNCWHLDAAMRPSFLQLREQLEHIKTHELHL

| SMILES | test | test system | setting | scale | quantity | result |
| --- | --- | --- | --- | --- | --- | --- |
| O=C(NC1CCC1)c1ccc2nc(-c3cccc(NS(=O)(=O)NCCN4CCCCC4)c3)cn2c1 | enzyme activity | – | 10 µM | – | remaining activity | 100% |
| C=CC(=O)N1CCC(COCC(=O)N2CCN(c3nc(-c4cnc(N)nc4C(F)F)nc(N4CCOC[C@@H]4C)n3)CC2)CC1 | KINOMEscan | – | 1 µM | baseline: DMSO control | remaining binding | 100% |
| COc1ccc(F)cc1C(=O)NCc1ccc(-c2nn([C@@H](C)C(F)(F)F)c(N)c2C(N)=O)cc1 | probe binding, competitive chemoproteomics | human PBMCs | 10 µM | – | inhibition | 30.1% |
| CCN(CC)c1ccc(C2=NNC(=O)CC2C)cc1[N+](=O)[O-] (stereo not drawn) | enzyme activity, inhibitor | – | 10 µM | baseline: vehicle | remaining activity | 69% |
| COc1cc(-c2cncc3c2CN(C)Cc2cc(N4CCNCC4)ccc2-3)cc(OC)c1OC | kinase activity | – | 1 µM, human enzyme, with: ATP 10 µM | baseline: DMSO control | remaining activity | 106% |
| [2H]c1cc(C)c(NC(=O)c2cnc(Nc3cc(N4CCCCC4)nc(C)n3)s2)c(Cl)c1 | – | – | 0.01 µM | – | inhibition | 30 to 90% |
| C=CC(=O)N1CCC(C(=O)NCC(=O)N2CCN(c3nc(-c4cnc(N)nc4C(F)F)nc(N4CCOCC4)n3)CC2)CC1 | KINOMEscan | – | 1 µM | – | remaining binding | 100% |
| CCCOc1ccc(OC)c(F)c1C(=O)c1ccc(C(=O)N[C@@H]2CNC[C@H]2NC(=O)c2ccc3[nH]ncc3c2)cc1 | enzyme activity | – | 10 µM | – | remaining activity | 106% |
| C[C@@H](c1ccc(-n2cnc3c(N)ncnc32)cc1)N1CCc2nn(C)c(Cc3ccccc3)c2C1=O | KINOMEscan | – | 0.1 µM | baseline: DMSO control | remaining binding | 96% |
| O=C1NC(=O)/C(=C/c2ccc(-c3ccc(F)cc3O)o2)S1 | enzyme activity | – | 10 µM | – | remaining activity | 100% |
| COc1cc(F)ccc1-c1ncnc(Nc2cccc(C[S@](C)(=N)=O)c2)n1 | kinase activity | – | 10 µM, with: 10 µM ATP | – | remaining activity | 95% |
| C1=C/COCc2cc(ccc2OCCN2CCCC2)Nc2nccc(n2)-c2cccc(c2)COC/1 | – | – | concentration not given | – | percent of control | 88% |

For quick reference, copied from above:
| SMILES | test | test system | setting | scale | quantity | result |
| --- | --- | --- | --- | --- | --- | --- |
| C[C@@H](c1ccc(-n2cnc3c(N)ncnc32)cc1)N1CCc2nn(C)c(Cc3ccccc3)c2C1=O | KINOMEscan | – | 0.1 µM | baseline: DMSO control | remaining binding | 96% |
| COc1ccc(F)cc1C(=O)NCc1ccc(-c2nn([C@@H](C)C(F)(F)F)c(N)c2C(N)=O)cc1 | probe binding, competitive chemoproteomics | human PBMCs | 10 µM | – | inhibition | 30.1% |
